Published values collected from several papers.
A part holds a random share of what one study measured. Positions count from the first letter of the parent shown.

Sample 1 — method: RNA Bind-n-Seq; form: RNA; medium: in vitro; concentration: 200 nM; notes: whole 134-nt RNA, ends assumed; with: 150 mM LiCl; reference: input library; reading: higher = stronger binding; endpoint: log2 enrichment; library: 7-deaza-guanosine replaces G
Target: Fragile X messenger ribonucleoprotein 1, C-terminal low-complexity region (Fmr1, Mus musculus, UniProt P35922)
Constant ends, left off below: GGGAGUUCUACAGUCCGACGAUC … UGGAAUUCUCGGGUGUCAAGG
CAGAACGAUCGAUACAGAAACCACGCUGCCGCCACCACACCAUCACCAUCGACAGAACAGUCCUUAAUCCAGAAACCUGAAAUGAAGGAA: 1.23
UAUUAAUUUGAUAUAUUUAUUAUGAUUUGUAGAGGACGUCGGUGAUGAAGGAGAAGAAGAAAAAGAAUUCAUUUCCUAUAACAUCAACAU: -4.35
UCCUCAAGUCCUGUGCUACACAUCGUAUGUACCGAAUCGGAAAGGUGGUGGAAAGUAUUAUGUUACGCCGUUCGGAUCUGCACUUCCAGC: -0.432
AGUCCUGUGCUACACAUCGUAUGUACCGAAUCGGGUUUUUGGGUUUUUGGGUUUUUGGAAAGUAUUAUGUUACGCCGUUCGGAUCUGCAC: -1.26
UUGGCUCGAGAGAUUGAAUCAAGCCCCCAGUACCGCCUACGGAUCGCCAUGGAGAACGACGAUGGGCGCACUGAAGAGGAGAAGCACAGU: -0.859
AGUCCUGUGCUACACAUCGUAUGUACCGAAUCGGGCCCCCGGGCCCCCGGCCCCCGGGAAAGUAUUAUGUUACGCCGUUCGGAUCUGCAC: -2.25
UUUCACUUCCAGCCAGCUGUGAAGAAGGUGAGCUUGCCUUCCAUCUUCCCCCCUAUCCGCCGCGUAUCUCCGUCGUCUGCAAGCGCGUGA: 1.05
AGUCCUGUGCUACACAUCGUAUGUACCGAAUCGGCCCCGGGCCCCGGGGCCCCGGGGAAAGUAUUAUGUUACGCCGUUCGGAUCUGCACU: -3.33
CAAGUCCUGUGCUACACAUCGUAUGUACCGAAUCGGGAAAAAGGGUGGGAAAGGGAAAGUAUUAUGUUACGCCGUUCGGAUCUGCACUUC: -0.68
CCUCAAGUCCUGUGCUACACAUCGUAUGUACCGAAUCGGCGGGGCGGCGGGGAAAGUAUUAUGUUACGCCGUUCGGAUCUGCACUUCCAG: -0.116
AGGCCCUGGUGGCAUGCGGGGAGGAAGAGGUGGCCUCAUGGAUCGUGGUGGUCCCGGUGGAAUGUUCAGAGGUGGCCGUGGUGGAGACAG: -0.751

Sample 2 — method: protein-binding microarray; form: double-stranded DNA, one strand shown; medium: in vitro; concentration: 250 nM; notes: 60-bp whole probe; with: salmon DNA 0.4 mg/ml; reference: random background probes; reading: higher = stronger binding; endpoint: log fluorescence; constant ends, left off below: GCCTAGCAC … GTCTTGATTCGCTTGACGCTGCTG
Target: Interferon regulatory factor 7, full length, phosphomimetic (IRF7, Homo sapiens, UniProt Q92985, residues 1-503, S101K/S471D/S472D/S475D/S476D/S477D/S483D/S484D/S487D)
Residues (chain): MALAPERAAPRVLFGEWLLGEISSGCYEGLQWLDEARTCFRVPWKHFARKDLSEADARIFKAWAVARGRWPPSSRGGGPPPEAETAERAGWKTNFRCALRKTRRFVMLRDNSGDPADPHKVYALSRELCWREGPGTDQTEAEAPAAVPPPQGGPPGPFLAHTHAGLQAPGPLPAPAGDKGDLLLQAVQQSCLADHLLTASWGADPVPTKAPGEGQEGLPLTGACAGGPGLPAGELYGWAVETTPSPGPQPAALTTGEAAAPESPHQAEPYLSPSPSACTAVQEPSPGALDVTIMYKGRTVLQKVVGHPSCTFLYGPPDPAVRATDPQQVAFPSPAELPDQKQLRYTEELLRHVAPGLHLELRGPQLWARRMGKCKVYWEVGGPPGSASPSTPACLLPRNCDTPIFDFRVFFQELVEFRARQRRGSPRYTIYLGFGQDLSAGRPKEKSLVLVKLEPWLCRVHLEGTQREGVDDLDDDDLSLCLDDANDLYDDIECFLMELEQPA
TCATTTTTGCATTGCTTACTGTGCTAG: 0.713 z-score
TCAGGTTTACCAGATCATCTGGTGCTA: 0.127 z-score
TCATTTTGCCCTATTTAACTGTGCTAG: 2.58 z-score
CACGGACTGGGGACTGGGGACGTGCTA: -0.447 z-score
TTAGGTATCCTACTGCTTCAGTGCTAG: -0.0618 z-score
GACCGTCTCCTTTTCCTGACGTGCTAG: 0.848 z-score
TAAGGACTGGGTATCGGTTAGTGCTAG: 0.931 z-score
GACGAGTCCAGTTTCGAGACGTGCTAG: 4.37 z-score
GACGGTTCCCTTTTCCTGACGTGCTAG: 2.72 z-score
GATTCTCCTGCCTCAGCCTCGTGCTAG: 1.3 z-score
GTCGATTTCAGTTCCGAGACGTGCTAG: 1.51 z-score
TTAGAACCGAGACTGGATTAGTGCTAG: 0.947 z-score
GACGGGCTCCTACTGCTGACGTGCTAG: -0.644 z-score
TTAGGACTGGGGACTGGGTGAGTGCTA: -0.528 z-score
GACGGTATTGGTCTCGGGACGTGCTAG: 0.386 z-score
GACATCCCCAGTCTCATATTGTGCTAG: 0.877 z-score
GACGATCTCAGTCTCGAGCCGTGCTAG: -0.0805 z-score
TCACTTTTGCTTTACTGACTGTGCTAG: 1.72 z-score
TTAGGACCGGGGTATCGGTTAGTGCTA: 1.02 z-score
TCAAAAATCAAGTCTGGGACTGTGCTA: -0.731 z-score
GTCGGTATCCTACTGCTGACGTGCTAG: 0.268 z-score
TTAGGTCTCCTTATCATTTAGTGCTAG: 0.304 z-score
TCAGTTATAATATTATTACTGTGCTAG: 0.54 z-score
TCATTTTTTTTTGTATTACTGTGCTAG: 1.06 z-score
GACGATTTCTGGTATCGAGACGTGCTA: 0.424 z-score

Sample 3 — method: DHFR PCA, deep sequencing; medium: yeast; with: (+)-ABA 4.8 µM; reference: wild-type fitted maximum; reading: higher = stronger binding; endpoint: relative binding score
Target: ABI1, truncated, D143A, DHFR fusion (Arabidopsis thaliana)
Notes: methotrexate growth selection, single substitutions
Starting sequence: PYL1, truncated, DHFR fusion (Arabidopsis thaliana); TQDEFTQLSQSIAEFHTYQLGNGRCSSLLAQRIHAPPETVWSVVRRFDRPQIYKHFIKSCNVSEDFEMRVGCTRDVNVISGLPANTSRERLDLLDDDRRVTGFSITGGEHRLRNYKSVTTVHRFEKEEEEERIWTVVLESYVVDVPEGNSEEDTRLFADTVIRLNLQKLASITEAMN
A158V: 109%
E67W: 39.6%
E129D: 90.3%
V142H: 22.8%
V76E: 5.17%
V136E: -12.2%
E14S: 34.4%
D3V: 55.8%
F66Q: 62.4%
S26Q: 46.9%
S87G: -0.815%
I12Q: 5.88%
S150E: 13.7%
V70C: 26%
L29F: -0.131%

Sample 4 — method: protein binding microarray; form: double-stranded DNA, one strand shown; medium: in vitro; concentration: not given; reference: not given; reading: higher = stronger binding; endpoint: E-score
Target: Histone acetyltransferase KAT6A, both winged helices, GST fusion (KAT6A, Homo sapiens, UniProt Q92794, residues 1-181)
Notes: 8-mer, flanks averaged, mean of 2 arrays, mostly near background
Target sequence (chain): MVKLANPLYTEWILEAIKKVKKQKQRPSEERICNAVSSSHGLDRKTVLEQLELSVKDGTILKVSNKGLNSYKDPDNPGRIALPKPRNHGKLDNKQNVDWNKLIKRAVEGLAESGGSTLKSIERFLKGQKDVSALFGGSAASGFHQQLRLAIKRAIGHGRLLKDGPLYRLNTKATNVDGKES
ATTTGTAA: -0.123
CAATCATC: -0.175
GAAAGTCA: -0.108
CTCGCTCA: 0.0493
CACGGTAG: 0.0338
GCATGATA: -0.0547
ATACCGCA: 0.204
GAATAGAC: -0.0932
AGAGAAGC: -0.0518
AGGTAAAT: -0.22
TGCCACCA: -0.157
ACCCATCT: -0.0732
AAGTTCTA: -0.0404
ACCCAAGC: -0.0555
AACCATAC: -0.103
AAACGTGA: -0.0369
GCAGTAAC: -0.0824
GCGAGTGA: 0.174
CCATCCGG: -0.00114
GAATCTCA: -0.177
ACAGACCA: -0.164
AAGGGCGC: 0.12
CTCGTGGA: -0.134
TGGCAGAA: -0.123
AGCTAGGA: -0.135

Sample 5 — target: CCND2, cyclin fold, Cln2 fusion (human); method: yeast growth competition, sequencing; medium: yeast; notes: strong parent motif; reference: not given; reading: higher = stronger binding; endpoint: normalised enrichment score
Starting sequence: PKN2 docking peptide (human); VSAVRKLDFSDTM
D11M: 2.77
D11E: 3.57
A3W: -0.0126
S2L: 1.66
S10I: 1.85
S2Q: 1.81
S2I: 1.74
R5P: 0.282
K6F: 1.91
V4W: 0.147
V4D: 0.168
S2P: 1.45
K6E: 1.35
S2Y: 1.55
F9L: 0.217
D8F: 0.274
D11T: 2.92
K6L: 1.71
D11I: 3.16
L7P: 0.601
L7M: 1.21
V4S: 1.9
K6W: 1.42
L7G: -0.196

Repeated from above (sample 3):
A158V: 109%
E67W: 39.6%
E129D: 90.3%
V142H: 22.8%
V76E: 5.17%
V136E: -12.2%
E14S: 34.4%
D3V: 55.8%
F66Q: 62.4%
S26Q: 46.9%
S87G: -0.815%
I12Q: 5.88%
